Measured values collected from several papers.
Lines come from different studies, so protocols differ. ± gives the spread as reported.
Magi2: Membrane-associated guanylate kinase, WW and PDZ domain-containing protein 2 (Magi2, Mus musculus, UniProt Q9WVQ1)
Chymotrypsin-C: Chymotrypsin-C (Homo sapiens, UniProt Q99895)
14-3-3 protein epsilon: 14-3-3 protein epsilon (Homo sapiens, UniProt P62258)

CC(C)C[C@H](NC(=O)[C@H](CO)NC(=O)[C@@H]1CCCN1C(=O)[C@H](CCC(N)=O)NC(=O)[C@@H](NC(=O)[C@H](C)NC(=O)[C@H](CCCCN)NC(=O)[C@H](CC(C)C)NC(=O)[C@H](Cc1ccc(O)cc1)NC(=O)[C@H](COP(=O)(O)O)NC(=O)[C@H](CCCNC(=N)N)NC(=O)[C@H](CCCNC(=N)N)NC(=O)[C@H](CCCNC(=N)N)NC(=O)[C@H](C)NC(=O)[C@H](C)N)[C@@H](C)O)C(=O)O — Kd (Magi2; ITC; pH 8.0, 25 °C, with: tandem peptide): 200 ± 20 nM
CSCC[C@@H]1NC(=O)[C@H](Cc2ccccc2)NC(=O)[C@H]([C@@H](C)O)NC(=O)[C@@H]2CSSC[C@@H]3NC(=O)[C@H]([C@@H](C)O)NC(=O)[C@H](CC(N)=O)NC(=O)[C@H](CSSC[C@@H](C(=O)N[C@@H](CC(=O)O)C(=O)N[C@@H](CCC(N)=O)C(=O)O)NC(=O)[C@H](CC(C)C)NC1=O)NC(=O)[C@H](CCCCN)NC(=O)[C@H](CC(=O)O)NC(=O)[C@H](CCCCN)NC(=O)[C@H](Cc1ccccc1)NC(=O)[C@H]([C@@H](C)O)NC(=O)[C@H]([C@@H](C)O)NC(=O)CNC(=O)[C@@H]1CCCN1C(=O)[C@H](CCC(=O)O)NC(=O)[C@@H](NC(=O)[C@@H](NC(=O)[C@@H](NC(=O)[C@H](CCC(=O)O)NC(=O)[C@H](CO)NC(=O)CN)C(C)C)[C@@H](C)O)CSSC[C@H](NC(=O)[C@H](CCCNC(=N)N)NC3=O)C(=O)NCC(=O)N[C@@H](CO)C(=O)N[C@@H](CC(=O)O)C(=O)NCC(=O)N[C@@H](CCCCN)C(=O)N[C@@H](CO)C(=O)N[C@@H](C)C(=O)N[C@@H](Cc1ccc(O)cc1)C(=O)N2 — Kd (Chymotrypsin-C; cell-free assay, FP; pH 8): 1.08 nM
Cc1n[nH]c(C)c1CCCOc1cc(OCCCCCCNCCOCCOCCn2cc(CNc3ccc(C(=O)O)cc3)nn2)cc(C(=O)O)c1 — Kd (Transthyretin (TTR, Homo sapiens, UniProt P02766); fluorescence polarization displacement): 213 nM
CC(C)C[C@H](NC(=O)[C@H](CCCNC(=N)N)NC(=O)[C@H](CC(C)C)NC(=O)[C@H](CO)NC(=S)Nc1ccc2c(c1)C(=O)OC21c2ccc(O)cc2Oc2cc(O)ccc21)C(=O)N[C@@H](CCCCN)C(=O)N[C@@H](CS)C(=O)NCC(=O)N[C@@H](CCP(=O)(O)O)C(=O)NCC(=O)N1CCC[C@H]1C(=O)N[C@H](C(=O)N[C@@H](Cc1c[nH]c2ccccc12)C(=O)N[C@@H](CC(C)C)C(=O)N[C@H](C(=O)N1CCC[C@H]1C(=O)N[C@@H](CCCNC(=N)N)C(=O)O)C(C)C)C(C)C — Kd (14-3-3 protein epsilon; binding, fluorescence anisotropy; pH 7.5, FITC-labelled phosphopeptide titration): 63000 nM
CC(C)C[C@H](NC(=O)[C@H](CO)NC(=O)[C@@H]1CCCN1C(=O)[C@H](CCC(N)=O)NC(=O)[C@@H](NC(=O)[C@H](C)NC(=O)[C@H](CCCCN)NC(=O)[C@H](CC(C)C)NC(=O)[C@H](Cc1ccc(O)cc1)NC(=O)[C@H](COP(=O)(O)O)NC(=O)[C@H](C)NC(=O)[C@H](CCCNC(=N)N)NC(=O)[C@H](CCCNC(=N)N)NC(=O)[C@H](C)NC(=O)[C@H](C)N)[C@@H](C)O)C(=O)O — Kd (Magi2; ITC; pH 8.0, 25 °C, with: tandem peptide): 90 ± 10 nM
C=C(C)C1CCC2(C(=O)NCCCCCCCC(=O)NCC(=O)O)CCC3(C)C(CCC4C5(C)CCC(O)C(C)(C)C5CCC43C)C12 (centres unmarked) — Kd (Envelope glycoprotein gp160, HR2 peptide (Human immunodeficiency virus type 1 group M subtype B, UniProt P03377); binding): 6700 nM
O=C(N[C@@H]1c2ccccc2C[C@H]1N1CCCC1)c1ccc(-c2ccnc3[nH]ccc23)nc1 — Kd (PRKCE (Homo sapiens, UniProt Q02156); binding, competition with immobilised ligand): 200 nM
CSCC[C@@H]1NC(=O)[C@H](Cc2ccccc2)NC(=O)[C@H]([C@@H](C)O)NC(=O)[C@@H]2CSSC[C@@H]3NC(=O)[C@H]([C@@H](C)O)NC(=O)[C@H](CC(N)=O)NC(=O)[C@H](CSSC[C@@H](C(=O)N[C@@H](CC(=O)O)C(=O)N[C@@H](CCC(N)=O)C(=O)O)NC(=O)[C@H](CC(C)C)NC1=O)NC(=O)[C@H](CCCCN)NC(=O)[C@H](CC(=O)O)NC(=O)[C@H](CCCCN)NC(=O)[C@H](Cc1ccccc1)NC(=O)[C@H]([C@@H](C)O)NC(=O)[C@H]([C@@H](C)O)NC(=O)CNC(=O)[C@@H]1CCCN1C(=O)[C@H](CCC(=O)O)NC(=O)[C@@H](NC(=O)[C@@H](NC(=O)[C@@H](NC(=O)[C@H](CCC(=O)O)NC(=O)[C@H](CO)NC(=O)CN)C(C)C)[C@@H](C)O)CSSC[C@H](NC(=O)[C@H](CCCNC(=N)N)NC3=O)C(=O)NCC(=O)N[C@@H](CO)C(=O)N[C@@H](CC(=O)O)C(=O)NCC(=O)N[C@@H](CCCCN)C(=O)N[C@@H](CO)C(=O)N[C@@H](C)C(=O)N[C@@H](C)C(=O)N2 — Kd (Chymotrypsin-C (Homo sapiens, UniProt Q99895, S216A); competitive fluorescence polarization; 24 h, pH 8.0, with: FITC-labelled tracer): 4.31 ± 0.47 nM
CC[C@H](C)[C@H](NC(=O)[C@H](CO)NC(=O)[C@H](CO)NC(=O)[C@H](CCC(=O)O)NC(=O)[C@H](CCC(=O)O)NC(=O)[C@H](CCCCN)NC(=O)[C@H](CO)NC(=O)[C@@H](NC(=O)[C@H](CO)NC(=O)[C@H](CC(C)C)NC(=O)[C@H](Cc1ccccc1)NC(=O)[C@H](CCCNC(=N)N)NC(=O)[C@H](C)NC(=O)[C@H](Cc1ccccc1)NC(=O)[C@H](Cc1ccccc1)NC(=O)[C@@H]1CCCN1C(=O)[C@H](CC(C)C)NC(=O)[C@H](C)NC(=O)[C@H](CCCCN)NC(=O)CNC(=O)[C@H](CCC(N)=O)NC(=O)[C@H](CCC(N)=O)NC(=O)[C@H](CC(=O)O)NC(=O)[C@H](CC(N)=O)NC(=O)[C@@H]1CCCN1C(=O)[C@H](Cc1ccc(O)cc1)NC(=O)[C@H](C)NC(=O)[C@@H](N)CCSC)C(C)C)C(=O)N[C@@H](CCCCN)C(=O)N[C@@H](CO)C(=O)N1CCC[C@H]1C(=O)N[C@@H](CO)C(=O)N1CCC[C@H]1C(=O)N[C@@H](CC(=O)O)C(=O)N[C@@H](Cc1c[nH]cn1)C(=O)N[C@@H](CCC(=O)O)C(=O)N[C@H](C(=O)N[C@@H](CO)C(=O)N[C@H](C(=O)N[C@@H](CCCNC(=N)N)C(=O)N[C@@H](CCCCN)C(=O)N[C@@H](Cc1ccc(O)cc1)C(=O)N1CCC[C@H]1C(=O)N[C@@H](CO)C(=O)N[C@@H](CC(=O)O)C(=O)N[C@@H](Cc1c[nH]c2ccccc12)C(=O)N[C@@H](CCC(=O)O)C(=O)N[C@@H](CCC(=O)O)C(=O)N[C@@H](Cc1c[nH]c2ccccc12)C(=O)O)[C@@H](C)O)[C@@H](C)CC — Kd (uncharacterized protein (Microcystis aeruginosa MRC, UniProt B2G3D0, E294A/N296A)): 575 ± 302 nM
CC(=O)N[C@@H](CCCNC(=N)N)C(=O)N[C@H](C(=O)N[C@@H](CCCCN)C(=O)N[C@@H](CO)C(=O)N[C@@H](CCCNC(=N)N)C(=O)N[C@H](C(=O)N[C@@H](Cc1c[nH]c2ccccc12)C(=O)N[C@@H](C)C(=O)N1Cc2ccccc2C[C@H]1C(N)=O)[C@@H](C)OP(=O)(O)O)[C@@H](C)O — Kd (14-3-3 protein epsilon; binding, SPR): 33.7 nM
BODIPY-ATP — Kd (GMP reductase (guaB1, Mycolicibacterium smegmatis, UniProt A0QYE8); fluorescence anisotropy; pH 6.6, 25 °C, without GMP): 13500 ± 3400 nM
CC(=O)NCCCC[C@H](NC(=O)CNC(=O)CNC(=O)[C@@H](NC(=O)[C@H](CO)NC(=O)[C@H](CCCCN)NC(=O)[C@H](CCCNC(=N)N)NC(=O)[C@H](C)NC(=O)[C@@H](NC(=O)[C@H](CCC(N)=O)NC(=O)[C@H](CCCCN)NC(=O)[C@@H](NC(=O)[C@H](CCCNC(=N)N)NC(=O)[C@H](C)N)[C@@H](C)OP(=O)(O)O)[C@@H](C)O)[C@@H](C)O)C(=O)N[C@@H](C)C(=O)N1CCC[C@H]1C(=O)N[C@@H](CCCNC(=N)N)C(=O)N[C@@H](CCCCN)C(=O)N[C@@H](CCC(N)=O)C(=O)O — Kd (YEATS domain-containing protein 4, YEATS domain (Homo sapiens, UniProt O95619); isothermal titration calorimetry; pH 7.6, 25 °C, with: histone peptide): 170000 nM
CC[C@H](C)[C@H](NC(=O)[C@H](Cc1c[nH]cn1)NC(=O)[C@H](CC(N)=O)NC(=O)[C@H](CC(C)C)NC(=O)[C@@H](NC(=O)[C@@H](NC(=O)[C@@H](N)CCCCN)[C@@H](C)O)C(C)C)C(=O)N[C@H](C(=O)N[C@@H](CCCCN)C(=O)N[C@@H](CCCNC(=N)N)C(=O)NCC(=O)N1CCC[C@H]1C(=O)N[C@@H](Cc1ccccc1)C(=O)N[C@@H](CC(C)C)C(=O)O)[C@@H](C)O — Kd (TIM13/TIM8 (Saccharomyces cerevisiae, UniProt P53299+P57744); binding, SPR; pH 7.4, 25 °C, with 63 µM compound, with: peptide 91-103): 350000 nM
CC(C)C[C@@H]1NC(=O)[C@H](CC(C)C)NC(=O)[C@H](CC(C)C)NC(=O)[C@H]([C@@H](C)O)NC(=O)[C@@H]2CSSC[C@@H]3NC(=O)[C@H]([C@@H](C)O)NC(=O)[C@H](CC(N)=O)NC(=O)[C@H](CSSC[C@@H](C(=O)N[C@@H](CC(=O)O)C(=O)N[C@@H](CCC(N)=O)C(=O)O)NC1=O)NC(=O)[C@H](CCCCN)NC(=O)[C@H](CC(=O)O)NC(=O)[C@H](CCCCN)NC(=O)[C@H](Cc1ccccc1)NC(=O)[C@H]([C@@H](C)O)NC(=O)[C@H]([C@@H](C)O)NC(=O)CNC(=O)[C@@H]1CCCN1C(=O)[C@H](CCC(=O)O)NC(=O)[C@@H](NC(=O)[C@@H](NC(=O)[C@@H](NC(=O)[C@H](CCC(=O)O)NC(=O)[C@H](CO)NC(=O)CN)C(C)C)[C@@H](C)O)CSSC[C@H](NC(=O)[C@H](CCCNC(=N)N)NC3=O)C(=O)NCC(=O)N[C@@H](CO)C(=O)N[C@@H](CC(=O)O)C(=O)NCC(=O)N[C@@H](CCCCN)C(=O)N[C@@H](CO)C(=O)N[C@@H](C)C(=O)N[C@@H](Cc1c[nH]c3ccccc13)C(=O)N2 — Kd (Chymotrypsin-C; cell-free assay, FP; pH 8): 1.72 nM
